Measurements gathered from unrelated publications.
± marks the error that the study gave.
CYP3A4: Cytochrome P450 3A4 (CYP3A4, Homo sapiens, UniProt P08684)
UniProt P08684, sequence (whole entry, looked up): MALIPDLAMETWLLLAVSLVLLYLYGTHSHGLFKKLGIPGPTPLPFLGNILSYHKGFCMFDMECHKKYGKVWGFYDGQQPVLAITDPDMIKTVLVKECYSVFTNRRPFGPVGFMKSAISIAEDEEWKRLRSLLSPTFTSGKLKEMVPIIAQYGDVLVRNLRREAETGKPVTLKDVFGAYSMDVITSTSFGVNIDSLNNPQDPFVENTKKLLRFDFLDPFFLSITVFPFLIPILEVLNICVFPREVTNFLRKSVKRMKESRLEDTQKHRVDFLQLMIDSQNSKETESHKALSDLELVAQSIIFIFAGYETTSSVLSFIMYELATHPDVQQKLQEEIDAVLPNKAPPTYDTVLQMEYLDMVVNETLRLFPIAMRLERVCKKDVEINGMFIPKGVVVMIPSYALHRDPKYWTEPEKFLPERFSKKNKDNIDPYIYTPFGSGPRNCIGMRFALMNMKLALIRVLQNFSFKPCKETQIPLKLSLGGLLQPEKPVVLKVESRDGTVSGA
ABCG2: Broad substrate specificity ATP-binding cassette transporter ABCG2 (ABCG2, Homo sapiens, UniProt Q9UNQ0)
UniProt Q9UNQ0, sequence (whole entry, looked up): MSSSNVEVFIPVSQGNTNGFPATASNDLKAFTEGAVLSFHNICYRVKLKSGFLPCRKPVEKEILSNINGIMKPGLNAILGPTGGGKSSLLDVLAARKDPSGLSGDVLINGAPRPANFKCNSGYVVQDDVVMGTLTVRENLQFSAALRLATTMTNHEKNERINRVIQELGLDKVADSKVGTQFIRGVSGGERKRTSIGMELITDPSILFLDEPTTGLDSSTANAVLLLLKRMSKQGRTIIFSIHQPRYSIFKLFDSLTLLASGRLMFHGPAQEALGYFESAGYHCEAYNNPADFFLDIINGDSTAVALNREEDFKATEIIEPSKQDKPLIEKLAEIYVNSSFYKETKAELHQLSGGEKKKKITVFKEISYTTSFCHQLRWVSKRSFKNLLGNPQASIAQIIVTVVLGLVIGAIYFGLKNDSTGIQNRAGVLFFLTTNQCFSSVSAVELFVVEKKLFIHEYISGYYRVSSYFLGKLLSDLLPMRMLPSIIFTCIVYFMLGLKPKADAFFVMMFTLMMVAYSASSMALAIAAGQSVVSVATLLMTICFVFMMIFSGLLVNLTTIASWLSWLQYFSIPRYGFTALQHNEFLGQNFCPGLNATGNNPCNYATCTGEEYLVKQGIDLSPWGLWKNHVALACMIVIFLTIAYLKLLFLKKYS
UniProt O15439, sequence (whole entry, looked up): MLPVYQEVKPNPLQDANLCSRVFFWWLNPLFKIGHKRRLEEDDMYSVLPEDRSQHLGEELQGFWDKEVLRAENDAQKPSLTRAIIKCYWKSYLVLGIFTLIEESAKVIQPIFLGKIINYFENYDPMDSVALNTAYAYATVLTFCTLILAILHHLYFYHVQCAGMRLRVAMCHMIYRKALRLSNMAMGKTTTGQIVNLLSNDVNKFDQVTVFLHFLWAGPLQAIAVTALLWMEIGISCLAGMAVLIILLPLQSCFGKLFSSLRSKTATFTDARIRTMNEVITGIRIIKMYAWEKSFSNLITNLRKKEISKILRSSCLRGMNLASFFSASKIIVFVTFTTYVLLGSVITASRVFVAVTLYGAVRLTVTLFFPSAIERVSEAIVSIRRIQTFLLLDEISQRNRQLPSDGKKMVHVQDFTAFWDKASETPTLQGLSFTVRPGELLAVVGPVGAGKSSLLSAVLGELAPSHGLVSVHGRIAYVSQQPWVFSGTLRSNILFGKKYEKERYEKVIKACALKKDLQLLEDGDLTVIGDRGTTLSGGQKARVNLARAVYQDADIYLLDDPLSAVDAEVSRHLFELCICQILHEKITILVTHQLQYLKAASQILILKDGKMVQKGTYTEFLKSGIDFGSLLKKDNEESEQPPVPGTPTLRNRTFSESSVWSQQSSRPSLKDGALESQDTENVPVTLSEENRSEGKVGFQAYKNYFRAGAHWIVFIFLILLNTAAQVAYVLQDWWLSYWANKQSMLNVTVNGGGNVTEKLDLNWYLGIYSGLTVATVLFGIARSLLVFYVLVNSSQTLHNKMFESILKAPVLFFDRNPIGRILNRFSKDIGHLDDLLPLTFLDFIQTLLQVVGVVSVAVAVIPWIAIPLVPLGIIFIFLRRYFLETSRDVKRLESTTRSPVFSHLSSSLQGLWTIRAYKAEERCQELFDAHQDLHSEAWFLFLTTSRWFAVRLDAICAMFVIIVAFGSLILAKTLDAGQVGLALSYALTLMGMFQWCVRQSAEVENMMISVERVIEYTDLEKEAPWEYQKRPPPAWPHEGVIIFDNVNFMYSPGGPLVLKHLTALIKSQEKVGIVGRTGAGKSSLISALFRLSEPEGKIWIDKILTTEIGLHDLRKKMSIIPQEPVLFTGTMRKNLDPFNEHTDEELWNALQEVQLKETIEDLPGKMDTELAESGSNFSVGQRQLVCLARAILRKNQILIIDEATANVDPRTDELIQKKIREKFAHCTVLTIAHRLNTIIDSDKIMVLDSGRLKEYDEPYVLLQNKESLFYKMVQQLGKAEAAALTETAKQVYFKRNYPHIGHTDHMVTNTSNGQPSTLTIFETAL
UniProt P61073, sequence (whole entry, looked up): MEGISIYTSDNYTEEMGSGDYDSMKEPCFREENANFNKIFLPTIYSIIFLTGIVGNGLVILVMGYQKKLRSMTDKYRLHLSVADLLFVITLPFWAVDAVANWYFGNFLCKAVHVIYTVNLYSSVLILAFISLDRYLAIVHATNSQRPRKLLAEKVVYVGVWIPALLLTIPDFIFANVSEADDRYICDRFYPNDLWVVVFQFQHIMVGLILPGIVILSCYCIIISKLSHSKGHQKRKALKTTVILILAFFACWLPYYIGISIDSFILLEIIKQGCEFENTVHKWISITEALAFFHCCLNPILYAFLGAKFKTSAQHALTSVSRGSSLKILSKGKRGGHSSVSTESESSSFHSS
UniProt P08835, sequence (whole entry, looked up): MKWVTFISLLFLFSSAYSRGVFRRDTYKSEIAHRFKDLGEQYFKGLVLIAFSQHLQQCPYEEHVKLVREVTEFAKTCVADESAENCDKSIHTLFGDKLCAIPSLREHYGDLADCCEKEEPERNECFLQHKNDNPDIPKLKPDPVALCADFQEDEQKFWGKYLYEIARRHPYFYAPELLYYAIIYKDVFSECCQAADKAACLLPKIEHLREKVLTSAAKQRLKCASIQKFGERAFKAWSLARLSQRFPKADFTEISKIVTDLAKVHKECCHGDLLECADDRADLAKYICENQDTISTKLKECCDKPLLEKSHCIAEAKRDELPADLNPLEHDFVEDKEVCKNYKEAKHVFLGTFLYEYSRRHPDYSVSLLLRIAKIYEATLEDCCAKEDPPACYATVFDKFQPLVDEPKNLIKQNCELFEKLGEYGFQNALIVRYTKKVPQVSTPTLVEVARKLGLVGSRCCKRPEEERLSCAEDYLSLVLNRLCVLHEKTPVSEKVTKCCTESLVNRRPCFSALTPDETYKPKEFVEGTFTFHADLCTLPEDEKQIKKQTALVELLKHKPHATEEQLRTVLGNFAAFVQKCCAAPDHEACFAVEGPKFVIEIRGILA
UniProt P00800, sequence (whole entry, looked up): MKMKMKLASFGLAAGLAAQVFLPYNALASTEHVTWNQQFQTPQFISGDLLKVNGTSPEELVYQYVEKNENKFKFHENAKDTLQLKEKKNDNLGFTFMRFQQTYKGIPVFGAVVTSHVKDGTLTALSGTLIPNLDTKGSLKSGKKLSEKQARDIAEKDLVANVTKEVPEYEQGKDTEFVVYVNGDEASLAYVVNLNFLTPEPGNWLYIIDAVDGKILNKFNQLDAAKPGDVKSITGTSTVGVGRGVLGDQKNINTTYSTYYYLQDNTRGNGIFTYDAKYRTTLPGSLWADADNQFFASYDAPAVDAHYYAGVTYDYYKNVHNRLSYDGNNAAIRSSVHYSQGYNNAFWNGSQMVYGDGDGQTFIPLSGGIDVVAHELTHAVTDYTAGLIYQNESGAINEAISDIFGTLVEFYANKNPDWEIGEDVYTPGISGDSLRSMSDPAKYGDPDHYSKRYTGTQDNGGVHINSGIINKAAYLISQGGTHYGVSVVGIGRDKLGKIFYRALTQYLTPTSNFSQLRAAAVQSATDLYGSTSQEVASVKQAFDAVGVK

Compound = C[C@@H](O)[C@H](NC(=O)[C@@H]1CCCN1C(=O)CNC(=O)[C@@H]1CC(=O)NCC(=O)N[C@H]2Cc3cn(c4ccccc34)-c3cc(ccc3O)C[C@H](NC2=O)C(=O)NCC(=O)N[C@@H](CO)C(=O)N[C@@H](CCC(N)=O)C(=O)N[C@@H](Cc2c[nH]c3ccccc23)C(=O)N1)C(=O)NCC(=O)N[C@@H](CCC(N)=O)C(=O)N[C@@H](CCCNC(=N)N)C(=O)N[C@@H](CC(=O)O)C(=O)O; target = chymotrypsin; assay = HPLC-MS; setting = 4 h, pH 8.5, 25 °C; endpoint = proteolytic stability; value = no effect
Compound = CC(C)C[C@H](NC(=O)[C@H](C)NC(=O)[C@H](CC(C)C)NC(=O)[C@@H](NC(=O)CNC(=O)[C@H](CC(C)C)NC(=O)[C@@H](N)Cc1ccccc1)C(C)C)C(=O)N[C@@H](CC(C)C)C(=O)NCC(=O)N[C@@H](Cc1ccc(O)cc1)C(=O)N[C@@H](CC(C)C)C(=O)N[C@@H](C)C(=O)N[C@H](C(=O)N[C@@H](CCCNC(=N)N)C(=O)N1CCC[C@H]1C(=O)N[C@@H](Cc1ccccc1)C(=O)N[C@@H](CC(C)C)C(=O)N1CCC[C@H]1C(=O)N[C@@H](CCCCN)C(=O)N[C@@H](CCCCN)C(=O)N[C@@H](CCCCN)C(=O)N[C@@H](CCC(N)=O)C(=O)N[C@@H](CCC(N)=O)C(=O)N[C@@H](CCCCN)C(N)=O)C(C)C; target = trypsin; assay = proteolytic stability, analytical HPLC; setting = 450 µM, 22 °C, added: trypsin 0.001 mg/mL; endpoint = time to full cleavage; value = 400 min
Compound = CC(C)(O)c1ccccc1CC[C@H](c1cccc(/C=C/c2ccc3ccc(Cl)cc3n2)c1)[S+]([O-])CC1(CC(=O)O)CC1 (some centres unmarked); target = CYP3A4; assay = inhibitor; setting = 10 µM, pH 7.4; endpoint = inhibition; value = 6.67%
Compound = Cc1cc(C)c(-c2cc(C)c(OP(=O)([O-])OCCC[C@H](C(=O)[O-])N3CCN(CC(=O)[O-])CCN(CC(=O)[O-])CCN(CC(=O)[O-])CC3)cc2C)c(C)c1.[Gd+3]; target = Albumin (ALB, Homo sapiens, UniProt P02768); assay = variable temperature NMRD; system = HSA-bound complex; setting = concentration not given; endpoint = activation enthalpy of water exchange; value = 10.1 kcal/mol
Compound = CC[C@@H](C)[C@@H](NC(=O)[C@@H](CCC(=O)O)NC(=O)[C@@H](CCC(=O)O)NC(=O)[C@@H](CCC(N)=O)NC(=O)C(C)(C)NC(=O)[C@@H](CCCCN)NC(=O)[C@H](NC(=O)[C@@H](Cc1ccccc1)NC(=O)C(C)(C)NC(=O)[C@@H](CC(=O)O)NC(=O)[C@@H](CCCCN)NC(=O)[C@@H](Cc1ccccc1)NC(=O)[C@@H](CC(N)=O)NC(=O)[C@@H](Cc1c[nH]cn1)NC(=O)[C@@H](CCC(=O)O)NC(=O)C(C)(C)NC(=O)[C@@H](CCC(=O)O)NC(=O)[C@@H](CC(=O)O)NC(=O)[C@@H](CC(C)C)NC(=O)[C@@H](Cc1ccccc1)NC(=O)[C@@H](Cc1ccc(O)cc1)NC(=O)[C@@H](CCC(N)=O)NC(=O)[C@H](N)CO)[C@H](C)O)C(=O)NCCOCCOCC(=O)NCCOCCOCC(=O)NCCOCCOCC(=O)N[C@@H](CS)C(N)=O; target = Thermolysin (npr, Bacillus thermoproteolyticus, UniProt P00800); assay = RP-HPLC; setting = 240 min, pH 8, 50 °C, added: thermolysin 15 µg/mL; endpoint = proteolytic stability; value = no effect
Compound = O=C(NCCCCCn1ccc2ccc(F)cc21)Oc1cccc(F)c1; target = Albumin (ALB, Sus scrofa, UniProt P08835); system = porcine protein solution 17.5 mg/mL in PBS; setting = 20 µM, 0.5 h, 37 °C; endpoint = remaining parent compound; value = 76 ± 4%
Compound = [64Cu+2].c1ccc(CNCc2ccc(CN3CCCNCCNCCCNCC3)cc2)nc1; target = CXCR4; system = NOD/SCID mouse, U87 and U87-stb-CXCR4 xenografts; setting = iv, 90 min, no blocking dose; scale = reference: U87 tumour over muscle; endpoint = tumour-to-tissue ratio; value = 18.4 ± 8.23
Compound = CC(CCC(=O)NCC(=O)O)C1CCC2C3C(O)CC4CC(OC5OC(C(=O)O)C(O)C(O)C5O)CCC4(C)C3CCC12C (centres unmarked); target = ABCC4 (Homo sapiens, UniProt O15439); assay = substrate, membrane vesicle uptake; setting = 0.2 µM, 10 min; scale = reference: ATP over AMP; endpoint = vesicle uptake ratio; value = ~4
Compound = CCCS(=O)(=O)c1ccc2[nH]c(NC(=O)OC)nc2c1; target = CYP3A4; assay = inhibitor; setting = 2 µM, pH 7.4; endpoint = inhibition; value = 7.51%
Compound = CC[C@H](C)[C@H](NC(=O)[C@H](C)NC(=O)[C@H](C)NC(=O)[C@H](C)NC(=O)[C@H](Cc1c[nH]cn1)NC(=O)[C@H](CCCCN)NC(=O)[C@H](C)NC(=O)[C@H](C)NC(=O)[C@H](C)NC(=O)[C@H](CCC(=O)O)NC(=O)[C@H](CCCCN)NC(=O)[C@H](C)NC(=O)[C@H](C)NC(=O)[C@H](C)NC(=O)[C@H](CCC(=O)O)NC(=O)[C@H](C)NC(C)=O)C(=O)N[C@@H](C)C(=O)N[C@@H](C)C(=O)N[C@@H](CS)C(=O)N[C@@H](C)C(N)=O; target = trypsin; assay = proteolysis resistance; setting = 4 °C, unit not given, added: Ni(II); scale = reference: metal-free HCM; endpoint = stability enhancement; value = 0.9
Compound = O=C(NC(CSC(Cc1ccccc1)C(=O)NCCCc1cccnc1)Cc1ccc(-c2ccccc2)cc1)c1cccnc1 (centres unmarked); target = CYP3A4; assay = thermal stability; endpoint = ΔTm; value = 3 °C
Compound = CNC(=O)Oc1cc(C)c(S(C)(=O)=O)c(C)c1; target = CYP3A4; system = human liver microsomes; setting = 2 µM, pH 7.4, added: midazolam; endpoint = inhibition; value = < 0%
Compound = Cc1cc(C)c(-c2cc(C)c(OP(=O)([O-])OCCC[C@H](C(=O)[O-])N3CCN(CC(=O)[O-])CCN(CP(=O)([O-])O)CCN(CC(=O)[O-])CC3)cc2C)c(C)c1.[Gd+3]; target = Albumin (ALB, Homo sapiens, UniProt P02768); assay = variable temperature NMRD; system = HSA-bound complex; endpoint = ZFS modulation correlation time; value = 30 ps
Compound = N=C(N)NCCC[C@H](NC(=O)[C@H](Cc1c[nH]c2ccccc12)NC(=O)[C@H](CCCCN)NC(=O)[C@H](CCCNC(=N)N)NC(=O)[C@H](Cc1c[nH]c2ccccc12)NC(=O)[C@H](CCCCN)NC(=O)[C@H](CCCNC(=N)N)NC(=O)[C@H](Cc1c[nH]c2ccccc12)NC(=O)[C@H](CCCCN)NC(=O)[C@H](CCCNC(=N)N)NC(=O)[C@@H](N)Cc1c[nH]c2ccccc12)C(=O)N[C@@H](CCCCN)C(N)=O; target = trypsin; assay = RP-HPLC; setting = 6 h, 37 °C; endpoint = remaining peptide; value = < 10%
Compound = CNC(=O)Oc1cc(C)c([S+](C)[O-])c(C)c1 (centres unmarked); target = CYP3A4; system = human liver fractions; setting = 1 µM, 30 min, pH 7.4; endpoint = metabolised; value = 3.37%
Compound = CC[C@H](C)[C@@H]1NC(=O)[C@H](CCC(N)=O)NC(=O)[C@H](CCC(N)=O)NC(=O)[C@@H]2CCCN2C(=O)[C@@H]2CCCN2C(=O)[C@H](CO)NC(=O)[C@H](CCSC)NC(=O)[C@H](CCCNC(=N)N)NC(=O)[C@H]([C@@H](C)O)NC(=O)[C@H]([C@@H](C)O)NC(=O)[C@H](Cc2ccccc2)NC(=O)[C@@H](NC(=O)[C@@H](CO)NC(=O)[C@@H](Cc2ccccc2)NC(=O)[C@@H](CC(C)C)NC(=O)[C@@H]2CCCN2C(=O)[C@@H](CC(C)C)NC(=O)[C@@H](Cc2ccccc2)NC(=O)[C@@H](CCC(=O)O)NC(=O)[C@@H](C)NC(=O)[C@@H](Cc2ccccc2)NC(=O)[C@H](N)C(C)C)CSSC[C@@H](C(=O)N[C@@H](CC(C)C)C(=O)N[C@@H](CC(N)=O)C(N)=O)NC1=O; target = chymotrypsin; assay = substrate, RP-HPLC; setting = pH 8.0, 25 °C; endpoint = time to complete cleavage; value = ≤ 4 h
Compound = CN1C(=O)[C@@H](Cc2ccc(O)cc2)NC(=O)CNC(=O)[C@H](Cc2ccc3ccccc3c2)NC(=O)[C@H](CCCNC(=N)N)NC(=O)[C@H]1CCCNC(=O)c1ccc(CNC(=O)CN2CCN(CC(=O)O)CCN(CC(=O)O)CCN(CC(=O)O)CC2)cc1 [gallium-68 labelled]; target = CXCR4 (Homo sapiens, UniProt P61073); assay = PET; system = human, brain background; endpoint = SUVmax; value = 0.21
Compound = CC#N.O=S(=O)([O-])C(F)(F)F.O=S(=O)([O-])C(F)(F)F.Oc1ccc(O)c(CN(CCN(Cc2ccccn2)Cc2ccccn2)Cc2ccccn2)c1.[Mn+2]; target = Mn(II) complex, metal-bound quinol; assay = potentiometric pH titration; setting = 25 °C, 100 mM KCl; endpoint = pKa; value = 6.3
Compound = CC(C)(O)c1ccccc1CC[C@H](c1cccc(/C=C/c2ccc3ccc(Cl)cc3n2)c1)S(=O)(=O)CC1(CC(=O)O)CC1; target = CYP3A4; assay = inhibitor; setting = 2 µM, pH 7.4; endpoint = inhibition; value = < 0%
Compound = N=C(N)NCCC[C@@H]1NC(=O)[C@H](CCCNC(=N)N)NC(=O)[C@H](CCCNC(=N)N)NC(=O)[C@H](CCCNC(=N)N)NC(=O)[C@H](Cc2c[nH]c3ccccc23)NC(=O)[C@H](CCCNC(=N)N)NC(=O)[C@H](CCCNC(=N)N)NC(=O)[C@@H](N)CCn2cc(nn2)C[C@@H](C(N)=O)NC1=O; target = trypsin; assay = substrate, HPLC; setting = pH 7.4, 37 °C; endpoint = complete degradation time; value = 85 to 110 min
Compound = C=CCc1ccc(O)c(-c2cc(CC=C)cc(O)c2O)c1; target = ABCG2; assay = mitoxantrone transport, inhibitor; setting = 50 µM, 30 min, added: mitoxantrone 5 µM; scale = reference: Ko143 0.5 µM; endpoint = inhibition; value = 6.9 ± 3.8%
Compound = Cc1c(NC(=O)c2ccc3c(c2)CC[C@@H]2C[C@@](O)(C(F)(F)F)CC[C@@]32Cc2ccccc2)ccc[n+]1[O-]; target = CYP3A4/5, human; assay = inhibitor, time-dependent inhibition, refers to: 1'-hydroxymidazolam formation; system = pooled human liver microsomes; setting = added: midazolam 23 µM; endpoint = kinact; value = 0.027 min⁻¹
Compound = CCCCCC1=C(NCC)C(=O)C(C/C=C(\C)CCC=C(C)C)=C(O)C1=O; target = ABCG2; assay = transport, inhibitor; setting = up to 22.5 µM; endpoint = inhibition; value = 89%

Repeated from above:
Compound = C=CCc1ccc(O)c(-c2cc(CC=C)cc(O)c2O)c1; target = ABCG2; assay = mitoxantrone transport, inhibitor; setting = 50 µM, 30 min, added: mitoxantrone 5 µM; scale = reference: Ko143 0.5 µM; endpoint = inhibition; value = 6.9 ± 3.8%
